Results collected from several papers.
Each line is one published result; not all experiments were run side by side. ± marks the error that the study gave.

| Compound | assay | system | conditions | AUC(0-inf) |
| --- | --- | --- | --- | --- |
| CCN1CCN(Cc2ccc(Nc3ncc(F)c(-c4cc(F)c5nc(C)n(C(C)C)c5c4)n3)nc2)CC1 | population PK model | patients, plasma | oral, 200 mg single dose | 4420 ng·h/mL |
| CC1Cc2ccccc2N1NC(=O)c1ccc(Cl)c(S(N)(=O)=O)c1 (stereo not shown) | – | healthy Chinese volunteers, whole blood | oral, 1.25 mg, fasting, with: perindopril tert-butylamine 4 mg | 963 ± 146 ng·h/mL |
| O=C(NC[C@H](O)CO)c1ccncc1Nc1ccc(I)cc1F | – | patients, plasma | oral, 60 mg single dose, day 8, median, alone | 1340 ng·h/mL |
| O=C1c2cccc3c2[C@H](CCC3)CN1[C@@H]1CN2CCC1CC2 | – | healthy volunteers, plasma | oral, 0.50 mg single dose, mean, with: netupitant 300 mg fixed combination | 50.2 ng·h/mL |
| Cc1nc(-c2ccc(OCC(C)C)c(C#N)c2)sc1C(=O)O | – | healthy Chinese adult volunteers, plasma | oral, 80 mg single dose, fasting | 15500 ± 3230 ng·h/mL |
| O=C(C1CCCCC1)N1CC(=O)N2CCc3ccccc3[C@H]2C1 | – | healthy men, plasma | oral, 40 mg/kg racemic praziquantel, geometric mean, without efavirenz | 5670 ng·h/mL |
| CCc1cc2c(cc1N1CCC(N3CCOCC3)CC1)C(C)(C)c1[nH]c3cc(C#N)ccc3c1C2=O | – | severe hepatic impairment, plasma, total | oral, 300 mg single, fed | 4260 ng·h/mL |
| C[C@H]1Oc2cc(cnc2N)-c2c(nn(C)c2C#N)CN(C)C(=O)c2ccc(F)cc21 | – | healthy adults | oral solution, 100 mg single dose, adjusted geometric mean | 9140 ng·h/mL |
| COc1cccc(N2CCN(C3=Nc4c(F)cccc4[C@H](CC(=O)O)N3c3cc(C(F)(F)F)ccc3OC)CC2)c1 | UHPLC-MS/MS | healthy women, plasma | intravenous infusion, 480 mg single dose, 60 min infusion, HPβCD formulation | 106000 ± 21600 ng·h/mL |
| COc1ccc2[nH]c([S+]([O-])Cc3ncc(C)c(OC)c3C)nc2c1 (stereo not shown) | – | healthy Chinese, CYP2C19 rapid metabolizers, plasma | oral, 20 mg single dose | 366 ± 233 ng·h/mL |
| CCOc1ccc(Cc2cc([C@@H]3S[C@H](CO)[C@@H](O)[C@H](O)[C@H]3O)c(OC)cc2C)cc1 | – | Japanese type 2 diabetes patients, plasma | oral, 5 mg single dose, eGFR ≥90 mL/min/1.73 m^2 | 2010 ± 508 ng·h/mL |
| CN1C(=O)[C@@H](NC(=O)c2nnc(Cc3ccccc3)[nH]2)COc2ccccc21 | – | healthy men, plasma | oral, 60 mg once daily, day 14, geometric mean | 2600 ng·h/mL |
| Cc1nc2cccc(N)c2c(=O)n1C1CCC(=O)NC1=O (stereo not shown) | – | healthy adults, plasma | oral, 3 mg, geometric mean, with: fluvoxamine 50 mg twice daily | 1100 ng·h/mL |
| COc1ccc2c3c1O[C@H]1C[C@@H](OC(=O)c4ccccc4)C=C[C@@]31CCN(C)C2 | – | healthy elderly men, plasma | intranasal, 33 mg, single dose | 125 ng·h/mL |
| COc1cc(OC)c(/C=C/S(=O)(=O)Cc2ccc(OC)c(NCC(=O)O)c2)c(OC)c1 | – | cancer patients, phase I, plasma | oral, 70 mg twice daily, day 1 cycle 1 | 1520 ± 1360 ng·h/mL |
| CNC(=O)c1ccc(-c2cnc3ncc(Cc4ccc5ncccc5c4)n3n2)cc1F | – | mild hepatic impairment | oral, 200 mg, geometric mean | 4790 ng·h/mL |
| CC(C)(Sc1ccncc1-c1ccc(C#N)c2ccccc12)C(=O)O | – | healthy Japanese male subjects, plasma | oral, 15 mg single dose, day 6, fed, geometric mean | 272 ng·h/mL |
| CC(C)=CCC[C@](C)(O[C@@H]1O[C@H](CO)[C@@H](O)[C@H](O)[C@H]1O)[C@H]1CC[C@]2(C)[C@@H]1[C@H](O)C[C@@H]1[C@@]3(C)CC[C@H](O[C@@H]4O[C@H](CO)[C@@H](O)[C@H](O)[C@H]4O)C(C)(C)[C@@H]3CC[C@]12C | LC-MS/MS | healthy volunteers, serum | oral, 3 g red ginseng | 4.54 ± 3.7 ng·h/mL |
| CCC[C@H](N[C@@H](C)C(=O)N1[C@H](C(=O)O)C[C@@H]2CCCC[C@@H]21)C(=O)O | – | healthy Chinese volunteers, whole blood | oral, 4 mg perindopril tert-butylamine, fasting, with: indapamide 1.25 mg | 73.8 ± 18.6 ng·h/mL |
| Nc1cccc2c1C(=O)N(C1CCC(=O)NC1=O)C2=O (stereo not shown) | – | healthy male smokers, plasma | oral, 4 mg, geometric mean, ANOVA | 463 ng·h/mL |
| O=C(Nc1nc2cccc(-c3ccc(CN4CCS(=O)(=O)CC4)cc3)n2n1)C1CC1 | – | healthy subjects, plasma | oral, 100 mg single dose, 1 h after itraconazole, fasting, mean, with: itraconazole 200 mg | 3130 ng·h/mL |
| CC(C)=CCC[C@](C)(O[C@@H]1O[C@H](CO)[C@@H](O)[C@H](O)[C@H]1O)[C@H]1CC[C@]2(C)[C@@H]1[C@H](O)C[C@@H]1[C@@]3(C)CC[C@H](O[C@@H]4O[C@H](CO)[C@@H](O)[C@H](O)[C@H]4O[C@@H]4O[C@H](CO)[C@@H](O)[C@H](O)[C@H]4O)C(C)(C)[C@@H]3CC[C@]12C | LC-MS/MS | healthy female volunteers, serum | oral, 3 g red ginseng | 12.3 ± 14.6 ng·h/mL |
| NC(=O)c1cnc2[nH]ccc2c1N[C@@H]1[C@@H]2CC3C[C@H]1C[C@@](O)(C3)C2 | – | healthy Caucasian men, plasma | oral, 200 mg, single dose fasted | 1520 ng·h/mL |
| CC(C)(Sc1ccncc1-c1ccc(C#N)c2ccccc12)C(=O)O | – | male, plasma | oral, 15 mg, moderate renal impairment, fasted | 402 ng·h/mL |
| CC(C)NCCCn1c(Sc2cc3c(cc2I)OCO3)nc2c(N)ncnc21 | – | patients, plasma | intravenous, ≥266 mg/m2 | > 51.9 µM·h |

Excerpt of the above:
| Compound | assay | system | conditions | AUC(0-inf) |
| --- | --- | --- | --- | --- |
| COc1ccc2c3c1O[C@H]1C[C@@H](OC(=O)c4ccccc4)C=C[C@@]31CCN(C)C2 | – | healthy elderly men, plasma | intranasal, 33 mg, single dose | 125 ng·h/mL |
